Assay results from different studies.
Numbered parts are unrelated; each lists some results of a single study. Values joined by “and” are separate records of one study, mostly repeats; a detail may differ.

Set 1
Cell line: HEK-293T
Read-out: pseudovirus infection
Method: FDA-approved drug library screen
Organism: VSV pseudotyped with SARS-CoV-2 spike
Tested at: 10 µM
Time: 16 h
Reference: vehicle-treated
Endpoint: GFP-positive cells
SMILES = CC1(C)O[C@@H]2C[C@H]3[C@@H]4C[C@H](F)C5=CC(=O)C=C[C@]5(C)[C@@]4(F)[C@@H](O)C[C@]3(C)[C@]2(C(=O)CO)O1; result = 99.5%
SMILES = CCC[C@H](N[C@@H](C)C(=O)N1[C@H](C(=O)O)C[C@@H]2CCCC[C@@H]21)C(=O)OCC; result = 74.6%
SMILES = NS(=O)(=O)c1cc2c(cc1C(F)(F)F)NC(Cc1ccccc1)NS2(=O)=O (stereo not drawn); result = 82.6%
SMILES = CCCCC(=O)O[C@]1(C(=O)CO)[C@@H](C)C[C@H]2[C@@H]3CCC4=CC(=O)C=C[C@]4(C)[C@@]3(F)[C@@H](O)C[C@@]21C; result = 74.8%

Set 2
Target: Interferon regulatory factor 7, full length, phosphomimetic (IRF7, Homo sapiens, UniProt Q92985, residues 1-503, S471D/S472D/S475D/S476D/S477D/S483D/S484D/S487D)
Chain of UniProt Q92985 (whole entry, unmodified, looked up): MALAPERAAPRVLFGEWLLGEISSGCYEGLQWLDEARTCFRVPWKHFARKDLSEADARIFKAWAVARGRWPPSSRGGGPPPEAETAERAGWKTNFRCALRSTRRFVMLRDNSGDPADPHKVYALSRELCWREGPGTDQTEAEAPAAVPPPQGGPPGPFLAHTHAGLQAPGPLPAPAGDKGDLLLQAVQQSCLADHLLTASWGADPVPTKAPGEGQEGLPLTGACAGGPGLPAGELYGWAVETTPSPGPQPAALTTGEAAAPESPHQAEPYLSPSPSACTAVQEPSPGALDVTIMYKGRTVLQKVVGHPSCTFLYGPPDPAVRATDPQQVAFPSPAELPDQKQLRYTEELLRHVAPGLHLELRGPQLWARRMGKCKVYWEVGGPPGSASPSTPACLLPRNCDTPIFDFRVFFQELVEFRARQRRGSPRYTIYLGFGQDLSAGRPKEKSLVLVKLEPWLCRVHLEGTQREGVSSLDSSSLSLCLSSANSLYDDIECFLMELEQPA
Method: protein-binding microarray
Form: double-stranded DNA, one strand shown
Medium: in vitro
Tested at: 2200 nM top
Setting: 60-bp whole probe
With: salmon DNA 0.4 mg/ml
Reference: random background probes
Direction: higher = stronger binding
Endpoint: fitted relative affinity
Shared flanks, not repeated: GCCTAGCAC … GTCTTGATTCGCTTGACGCTGCTG
Oligonucleotide = TAATGCTTCTGTATTCATGAGTGCTAG; result = 0.857 z-score
Oligonucleotide = GACGATATCAGTATCTAGACGTGCTAG; result = 0.292 z-score
Oligonucleotide = GACGGTATCCTTATCGTGACGTGCTAG; result = 0.7 z-score
Oligonucleotide = TTAGGTTTCGACACTTGGTTAGTGCTA; result = 2.24 z-score
Oligonucleotide = TTAGGTCGCGGTCTCGGTTAGTGCTAG; result = 0.357 z-score
Oligonucleotide = GACGGTCTCCTTCTCCCGACGTGCTAG; result = 1.05 z-score
Oligonucleotide = TCATCTTTCCACTTTCTACTGTGCTAG; result = 4.57 z-score
Oligonucleotide = TCAAACCTGGGTCTCTGACTGTGCTAG; result = -0.077 z-score

Set 3
Organism: SARS-CoV-2
Read-out: cytopathic effect
Cell line: Vero E6
Tested at: 10 µM
Endpoint: inhibition
SMILES = O=C1C(Cl)=C(N2CCOCC2)C(=O)N1c1ccc(Cl)c(Cl)c1; result = -8% and 1.7%
SMILES = O=C1NC(=O)C(c2ccccc2)N1 (stereo not drawn); result = 2.9%
SMILES = O=C1/C(=C/c2ccc([N+](=O)[O-])cc2)CS(=O)(=O)C/C1=C\c1ccc([N+](=O)[O-])cc1; result = -46%
SMILES = O=C(O)C(=O)CBr; result = 4.7%

Set 4
Target: Replicase polyprotein 1ab, nsp13 helicase (rep, Severe acute respiratory syndrome coronavirus 2, UniProt P0DTD1)
Action: inhibitor
Tested at: 20 µM
Endpoint: inhibition
SMILES = CN1C(=O)N(c2cc(Cl)cc(Cl)c2)C(=O)[C@@]1(C)Cc1ccc(Br)cc1; result = -0.49%
SMILES = COc1cnc(NS(=O)(=O)c2ccc(N)cc2)nc1; result = -0.84%
SMILES = CCCCCCOc1ccccc1C(N)=O; result = 2.9%
SMILES = CCOc1c(N2CCOCC2)cnn(C)c1=O; result = 3.75%
SMILES = Cc1cccn2c(=O)c(-c3nnn[nH]3)cnc12; result = -0.48%
SMILES = COc1ncc(-c2ccc3c(Nc4cc(Oc5cc(F)cc(F)c5)cc(C(=O)O)c4)c(S(=O)(=O)NC4CC4)cnc3c2)c(OC)n1; result = 11.8%
SMILES = NC(N)=NCCC[C@H](N)C(=O)NCC(=O)N[C@@H](CC(=O)O)C(=O)N[C@@H](CO)C(=O)O; result = 9.9%
SMILES = Cc1cc(C)c2c(c1)[C@@H](N(Cc1cc(C(F)(F)F)cc(C(F)(F)F)c1)c1nnn(C)n1)CCCN2C[C@H]1CC[C@H](C(=O)O)CC1; result = 7.98%
SMILES = NC(=O)Cc1cccc(C(=O)c2ccccc2)c1N; result = 4.73%
SMILES = CCCS(=O)(=O)Nc1ccc(F)c(C(=O)c2c[nH]c3ncc(-c4ccc(Cl)cc4)cc23)c1F; result = 3.79%
SMILES = CS(=O)(=O)N1CCN(Cc2cc3nc(-c4cccc5[nH]ncc45)nc(N4CCOCC4)c3s2)CC1; result = 7.45%
SMILES = c1cc(CN2CCCCC2)cc(OCCCNc2nc3ccccc3s2)c1; result = 1.85%
SMILES = COc1c(C)cnc(Cn2cc(C#CCC(C)(C)O)c3c(Cl)nc(N)nc32)c1C; result = 4.45%
SMILES = COc1ccc2cc3[n+](cc2c1OC)CCc1cc2c(cc1-3)OCO2; result = -14.3%
SMILES = COc1cccc2c1C(=O)c1c(O)c3c(c(O)c1C2=O)C[C@@](O)(C(C)=O)C[C@@H]3O[C@H]1C[C@H](N)[C@H](O)[C@H](C)O1; result = 87.8%
SMILES = N=C(N)SCCc1ccc(OCc2ccc([N+](=O)[O-])cc2)cc1; result = 9.76%
SMILES = CCN(CC)CCNC(=O)COc1ccc(OC)cc1; result = -0.91%
SMILES = O=C1NC(=O)[C@@H](c2cn3c4c(cccc24)CCC3)[C@@H]1c1c[nH]c2ccccc12; result = -1.69%
SMILES = CC1=C(C(=O)O)N2C(=O)[C@@H](NC(=O)[C@H](N)c3ccc(O)cc3)[C@H]2SC1; result = 5.52%
SMILES = CC/C(=C(\c1ccc(O)cc1)c1ccc(OCCNC)cc1)c1ccccc1; result = 10.8%
SMILES = Cc1ccc(-c2ccc(F)cc2COc2ccc(CCC(=O)O)cc2)cc1; result = 5.11%
SMILES = O=[N+]([O-])c1cncn1CCN1CCOCC1; result = 0.91%
SMILES = CC[C@H]1[C@@H](O)[C@@H]2[C@H](CC[C@]3(C)[C@@H]([C@H](C)CCC(=O)O)CC[C@@H]23)[C@@]2(C)CC[C@@H](O)C[C@@H]12; result = 13.4% and 0.91%
SMILES = Cc1cc(Cn2nnc3c(-c4ccco4)nc(N)nc32)ccc1N; result = 5.13%

Set 5
Target: Histone acetyltransferase KAT6A, both winged helices, GST fusion (KAT6A, Homo sapiens, UniProt Q92794, residues 1-181)
Method: protein binding microarray
Form: double-stranded DNA, one strand shown
Medium: in vitro
Tested at: not given
Setting: 8-mer, flanks averaged, mean of 2 arrays, mostly near background
Reference: not given
Direction: higher = stronger binding
Endpoint: E-score
Target sequence (chain): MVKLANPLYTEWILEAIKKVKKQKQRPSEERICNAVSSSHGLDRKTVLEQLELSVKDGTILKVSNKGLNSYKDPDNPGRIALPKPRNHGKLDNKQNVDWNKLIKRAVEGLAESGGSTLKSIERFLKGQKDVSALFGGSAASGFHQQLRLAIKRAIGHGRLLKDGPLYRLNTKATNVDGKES
Oligonucleotide = ATTCCCGG; result = 0.195
Oligonucleotide = AGTAGGGA; result = -0.0925
Oligonucleotide = GCAGTGGC; result = 0.0746
Oligonucleotide = CGATGGAG; result = 0.0337
Oligonucleotide = CGCGCCAC; result = 0.252
Oligonucleotide = TTCCGCAA; result = 0.0776
Oligonucleotide = GGCCGCCA; result = 0.142
Oligonucleotide = GCGCTAAC; result = 0.268

For quick reference, copied from above (set 4):
SMILES = COc1cccc2c1C(=O)c1c(O)c3c(c(O)c1C2=O)C[C@@](O)(C(C)=O)C[C@@H]3O[C@H]1C[C@H](N)[C@H](O)[C@H](C)O1; result = 87.8%
SMILES = NC(N)=NCCC[C@H](N)C(=O)NCC(=O)N[C@@H](CC(=O)O)C(=O)N[C@@H](CO)C(=O)O; result = 9.9%
SMILES = CC[C@H]1[C@@H](O)[C@@H]2[C@H](CC[C@]3(C)[C@@H]([C@H](C)CCC(=O)O)CC[C@@H]23)[C@@]2(C)CC[C@@H](O)C[C@@H]12; result = 13.4% and 0.91%
SMILES = CC/C(=C(\c1ccc(O)cc1)c1ccc(OCCNC)cc1)c1ccccc1; result = 10.8%
SMILES = CCCCCCOc1ccccc1C(N)=O; result = 2.9%
